# Measurements gathered from unrelated publications.
# ± marks the error that the study gave.
Compound,test,system,conditions,scale,measurement,result
CSCC[C@@H]1NC(=O)[C@@H]2CSSC[C@H](NC(=O)[C@H](CO)NC(=O)[C@H](C)N)C(=O)N[C@@H](CCCNC(=N)N)C(=O)N[C@@H]([C@@H](C)O)C(=O)N3CCC[C@H]3C(=O)N[C@@H](CCCCN)C(=O)N[C@@H](CC(=O)O)C(=O)N[C@H]3CSSC[C@H](NC(=O)[C@H](CCCCN)NC(=O)[C@H](CCCNC(=N)N)NC(=O)[C@H](CC(N)=O)NC1=O)C(=O)N[C@@H](CCCCN)C(=O)N[C@H]1CSSC[C@H](NC(=O)[C@@H]4CCCN4C(=O)[C@H](CC(=O)O)NC(=O)[C@H](C)NC3=O)C(=O)N[C@@H](C)C(=O)N[C@@H](CCCCN)C(=O)N[C@@H](CCC(=O)O)C(=O)N[C@@H]([C@@H](C)O)C(=O)NCC(=O)N[C@@H](CSSC[C@@H](C(N)=O)NC(=O)[C@H](CCCNC(=N)N)NC(=O)[C@H](CC(N)=O)NC1=O)C(=O)N1CCC[C@H]1C(=O)N[C@@H](Cc1ccc(O)cc1)C(=O)NCC(=O)N[C@@H](CCCCN)C(=O)N2,,"DA rat, pristane-induced arthritis, serum","subcutaneous, 0.1 mg/kg every other day, end of 21-day trial",,creatine kinase,418 U/L
CC(=CCC(O)C(C)=Cc1csc(C)n1)CC=CC(C)C(O)C(C)C(=O)C(C)(C)C(O)CC(=O)O (centres unmarked),,"human, plasma","intravenous infusion, 48 mg/m2 KOS-1584, 3 h infusion, cycle 1",baseline: metabolite over KOS-1584,AUC ratio,9.16 ± 0.84%
COc1ccc(C)cc1NC(=O)OC1CC2CCCC(C1)N2Cc1ccc(CC[18F])cc1 (centres unmarked),,"BALB/c mice EMT6 tumour, lung","dose not given, 2 h",baseline: initial activity,activity reduction,95%
CC(C)[C@H]1NC(=O)C[C@H]2/C=C/CCSSC[C@@H](NC1=O)C(=O)N[C@H](Cc1cccc3ccccc13)C(=O)NCC(=O)O2,,"nude mouse, blood","intravenous, 4 mg/kg",,AUC,10.4 ng·h/mL
CC[C@H](C)[C@H](NC(=O)[C@H](CCCCN)NC(=O)[C@H](CCCCN)NC(=O)[C@H](Cc1ccccc1)NC(=O)[C@H](CC(C)C)NC(=O)[C@@H](CCCCN)NC(=O)[C@H](Cc1c[nH]c2ccccc12)NC(=O)[C@H](CCCCN)NC(C)=O)C(=O)NCC(=O)N[C@@H](C)C(=O)N[C@H](C(=O)N[C@@H](CC(C)C)C(=O)N[C@H](CCCCN)C(=O)N[C@H](C(=O)N[C@@H](CC(C)C)C(N)=O)C(C)C)C(C)C,circular dichroism,PE:PG:CL liposomes,"60 µM, lipid to peptide ratio 1",baseline: reference peptide,helical content,~69%
[2H]C([2H])([2H])C([2H])([2H])C([2H])([2H])OC(C(=O)OC1CCNCC1)(c1ccccc1)c1ccccc1,item: upper respiratory tract infection,healthy Japanese male,"oral, 12 mg once daily, 16 days",,adverse drug reactions,0%
Cc1cc(Oc2nc(N3CC[C@@H](c4ccncc4)C3)ncc2F)[nH]n1,,"BALB/c mice, female","s.c., 1500 mg/kg, long-acting injectable",,duration of sustained exposure,≥ 4 weeks
C[S]1CC[S]2CC[P](CO)(CO)[99Tc+]12.[C-]#[O+].[C-]#[O+].[C-]#[O+],,CF-1 mouse,"intravenous, 24 h",,uptake in small intestine,0.4 %ID
CC(C)[C@H](NC(=O)CNC(=O)[C@H](CCC(N)=O)NC(=O)[C@H](C)N)C(=O)O,,healthy male volunteers,"intravenous, 15 mg/kg/h, 2 h, added: LPS 2 ng/kg",,subjects with Possibly related AE,0%
CC[C@H](C)[C@@H]1NC(=O)[C@H](C(C)C)NC(=O)[C@H](C(C)C)NC(=O)[C@H](CC(C)C)NC(=O)C[C@@H](C(=O)N[C@@H](Cc2c[nH]c3ccccc23)C(=O)N[C@@H](CC(N)=O)C(=O)N[C@@H](C)C(=O)N2CCC[C@H]2C(=O)NCC(=O)N[C@@H](Cc2c[nH]c3ccccc23)C(=O)N[C@@H](Cc2ccc(O)cc2)C(=O)O)NC(=O)[C@H](C)NC(=O)[C@H](CCC(N)=O)NC(=O)[C@H](C(C)C)NC1=O,HPLC,,"3 h, 95 °C",,thermal stability,stable
CC(C)[C@H](NC(=O)CNC(=O)[C@H](CCC(N)=O)NC(=O)[C@H](C)N)C(=O)O,,human,"single dose, 3 mg/kg",,possibly related adverse events,0%
C/C=C/C=C/C/C=C/CCCCCCCc1cccc(O)c1O,,"female Kunming mice, tumour-bearing, tumor","intravenous, 10 mg/kg, 0.5 h",,tissue concentration,48200 ± 4010 ng/g
CSCC[C@H](NC(=O)[C@H](CO)NC(=O)[C@H](Cc1ccc(O)cc1)NC(=O)[C@@H](N)CO)C(=O)N[C@@H](CCC(=O)O)C(=O)N[C@@H](Cc1c[nH]cn1)C(=O)N[C@@H](Cc1ccccc1)C(=O)N[C@@H](CCCNC(=N)N)C(=O)N[C@@H](Cc1c[nH]c2ccccc12)C(=O)NCC(=O)N[C@@H](CCCCN)C(=O)N1CCC[C@H]1C(=O)N[C@H](C(=O)NCC(=O)N[C@@H](CCCCN)C(=O)N[C@@H](CCCCN)C(=O)N[C@@H](CCCNC(=N)N)C(=O)N[C@@H](CCCNC(=N)N)C(=O)N1CCC[C@H]1C(=O)N[C@H](C(=O)N[C@@H](CCCCN)C(=O)N[C@H](C(=O)N[C@@H](Cc1ccc(O)cc1)C(=O)N1CCC[C@H]1C(=O)N[C@@H](CC(=O)O)C(=O)NCC(=O)N[C@@H](C)C(=O)N[C@@H](CCC(=O)O)C(=O)N[C@@H](CC(=O)O)C(=O)N[C@@H](CCC(=O)O)C(=O)N[C@@H](CC(C)C)C(=O)N[C@@H](C)C(=O)N[C@@H](CCC(=O)O)C(=O)N[C@@H](C)C(=O)N[C@@H](Cc1ccccc1)C(=O)N1CCC[C@H]1C(=O)N[C@@H](CC(C)C)C(=O)N[C@@H](CCC(=O)O)C(=O)N[C@@H](Cc1ccccc1)C(=O)O)C(C)C)C(C)C)C(C)C,,"healthy human subjects, plasma","subcutaneous, 80 IU three times weekly, day 15, repository corticotropin injection",,AUC(0-last),0.856 ng·h/mL
CC[C@H](C)C(=O)N1CCC(NC(=O)Nc2ccc(OC(F)(F)F)c(F)c2)CC1,,healthy volunteers,"oral, 24 mg single dose, 14 (unit not given)",,subjects with severe TEAE,0%
COc1cc(NC(=O)C(=O)c2c(C)n(Cc3ccc(Cl)cc3)c3ccc(C)cc23)ccn1,,"cynomolgus monkey, male, plasma","oral, 10 mg/kg",,AUC(0-last),2580 ng·h/mL
N=C(N)NCc1ccc(C(=O)NCCCC[C@H](NC(=O)N[C@@H](CCC(=O)O)C(=O)O)C(=O)O)cc1[211At],,"SCID mouse, PC-3 xenografts, heart",14 h,,tissue uptake,0.48 ± 0.12 %ID/g
Cc1ccccc1CN1CCC(O)(c2ccc(Cl)c(C(F)(F)F)c2)CC1,LC-MS,"BALB/c mouse, serum","oral, 50 mg/kg",baseline: intraperitoneal route,relative oral bioavailability,< 10%
CN(C)C(CNC(=O)Nc1cc(C(F)(F)F)ccc1N1CCOCC1)c1ccncc1 (centres unmarked),,"mouse, serum","intraperitoneal, 180 mg/kg single dose",,serum calcium,8.6 mg/dL
CC[C@H](C)[C@H](NC(=O)[C@H](CCCCN)NC(=O)CNC(=O)[C@H](CC(C)C)NC(=O)[C@@H](NC(=O)[C@H](C)NC(=O)[C@H](CCCCN)NC(=O)CNC(=O)[C@H](C)NC(=O)CNC(=O)[C@H](CCCCN)NC(=O)[C@H](CCSC)NC(=O)[C@H](CCCCN)NC(=O)[C@@H](NC(=O)[C@H](Cc1c[nH]c2ccccc12)NC(=O)[C@H](CC(C)C)NC(=O)[C@H](CCC(=O)O)NC(=O)[C@H](CCCCN)NC(=O)[C@H](CC(C)C)NC(=O)[C@@H](N)CC(C)C)[C@@H](C)O)C(C)C)C(=O)N[C@@H](CCCCN)C(=O)NCC(=O)N[C@@H](CC(C)C)C(=O)N[C@@H](CC(C)C)C(=O)O,acrylamide quenching,"PBS, no lipid","2 µM, added: acrylamide",,Stern-Volmer constant,10.1 ± 1.15 M⁻¹
[11CH3]n1c(=O)n(CCCO)c(=O)c2c1nc(Oc1cccc(OC(F)(F)F)c1)n2Cc1ccc(Cl)cc1,ex vivo biodistribution,"Sprague Dawley rat, fat",30 min post injection,,tracer uptake,0.72 ± 0.05 %ID/g
C[C@H](NCc1ccc(-c2ccc(C(F)(F)F)cc2)cc1)C(N)=O,,"Sprague-Dawley rat, plasma","oral, 10 mg/kg",,bioavailability,> 100%
CCC(C)C(=O)OC1C2C3(C)CCC(OC4CC(OC)C(OC5OC(C)C(O)C(OC)C5O)C(C)O4)CC3CCC23OC32CCC(C(C)=O)C2(C)C1OC(C)=O (centres unmarked),,Caco-2,10 µM,,Papp A→B,1.52 ×10⁻⁶ cm/s
CSCC[C@H](NC(=O)[C@H](Cc1ccc(O)cc1)NC(=O)[C@@H](CC(=O)O)NC(=O)CN1CCN(CC(=O)O)CCN(CC(=O)O)CCN(CC(=O)O)CC1)C(=O)NCC(=O)N[C@@H](Cc1c[nH]c2ccccc12)C(=O)N[C@@H](CCSC)C(=O)N[C@@H](CC(=O)O)C(=O)N[C@@H](Cc1ccccc1)C(N)=O,,"MF1 nude mouse, male, AR-42J xenograft","intravenous, 0.2 µg, 4 h, 111In-labelled",baseline: tumour over kidney,tumour-to-kidney ratio,0.23
CC(CCC(=O)NCC(=O)O)C1CCC2C3C(O)CC4CC(OC5OC(C(=O)O)C(O)C(O)C5O)CCC4(C)C3CCC12C (centres unmarked),,"human, SLCO1B1 *14/*14, plasma","geometric mean, sex-adjusted",,plasma concentration,6.42 ng/mL
CC[C@H](C)[C@H](NC(=O)[C@H](CCC(=O)O)NC(=O)[C@H](CCC(=O)O)NC(=O)[C@H](Cc1ccccc1)NC(=O)[C@H](CC(=O)O)NC(=O)CNC(=O)[C@H](CC(N)=O)NC(=O)CNC(=O)CNC(=O)CNC(=O)CNC(=O)[C@@H]1CCCN1C(=O)[C@H](CCCNC(=N)N)NC(=O)[C@@H]1CCCN1C(=O)[C@H](N)Cc1ccccc1)C(=O)N1CCC[C@H]1C(=O)N[C@@H](CCC(=O)O)C(=O)N[C@@H](CCC(=O)O)C(=O)N[C@@H](Cc1ccc(O)cc1)C(=O)N[C@@H](CC(C)C)C(=O)O,LC-MS/MS,human plasma,"-20 to 25 °C, three freeze-thaw cycles, nominal 30.0 ng/mL",,concentration,29.7 ± 1.3 ng/mL
CCCCCOc1ccc(-c2cc(-c3ccc(C(=O)N[C@H]4C[C@@H](O)[C@@H](O)NC(=O)[C@@H]5[C@@H](O)[C@@H](C)CN5C(=O)[C@H]([C@H](O)CC(N)=O)NC(=O)[C@H]([C@H](O)[C@@H](O)c5ccc(O)c(O)c5)NC(=O)[C@@H]5C[C@@H](O)CN5C(=O)[C@H]([C@@H](C)O)NC4=O)cc3)no2)cc1,,"human normal hepatic function, plasma","intravenous, up to 16 h, concentration below limit",,lower limit of quantification,< 0.05 µg/mL
CN[C@](C)(C[18F])C(=O)O,,"SCID mouse DU-145 xenograft, brain","60 min, post injection",,tissue uptake,0.2 ± 0.03 %ID/g
COC(=O)C[C@](O)(CCCC(C)(C)OC(C)=O)C(=O)O[C@@H]1C(OC)=C[C@]23CCCN2CCc2cc4c(cc2[C@H]13)OCO4,,"CD1 mouse, bone marrow","subcutaneous, 1 mg/kg, 0.5 h",,tissue concentration,176 ng/mL
CC(C)C[C@H](NC(=O)[C@H](CCCCN)NC(=O)[C@H](CCC(=O)O)NC(=O)[C@H](C)NC(=O)[C@@H](NC(=O)[C@H](CCCCN)NC(=O)[C@H](CC(=O)O)NC(=O)[C@H](Cc1ccc(O)cc1)NC(=O)[C@H](Cc1ccccc1)NC(=O)[C@H](C)NC(=O)[C@H](CCCCN)NC(=O)[C@H](CC(C)C)NC(=O)[C@H](Cc1c[nH]c2ccccc12)NC(=O)[C@@H](N)CC(=O)O)C(C)C)C(=O)N[C@@H](CCCCN)C(=O)N[C@@H](CCC(=O)O)C(=O)N[C@@H](C)C(=O)N[C@@H](Cc1ccccc1)C(=O)N1CCC[C@H]1C(=O)N[C@@H](CC(=O)O)C(=O)N[C@@H](Cc1c[nH]c2ccccc12)C(=O)N[C@@H](C)C(=O)N[C@@H](CCCCN)C(=O)N[C@@H](C)C(=O)N[C@@H](C)C(=O)N[C@@H](Cc1ccc(O)cc1)C(=O)N[C@@H](CC(=O)O)C(=O)N[C@@H](CCCCN)C(=O)N[C@@H](C)C(=O)N[C@@H](C)C(=O)N[C@@H](CCC(=O)O)C(=O)N[C@@H](CCCCN)C(=O)N[C@@H](C)C(=O)N[C@@H](CCCCN)C(=O)N[C@@H](CCC(=O)O)C(=O)N[C@@H](C)C(=O)N[C@@H](C)C(=O)O,,"cynomolgus monkey female, plasma","intravenous infusion, 8 mg/kg, day 1, 30 min infusion",,Cmax,125000 ng/mL

# Excerpt of the above:
Compound,test,system,conditions,scale,measurement,result
CC(C)[C@H](NC(=O)CNC(=O)[C@H](CCC(N)=O)NC(=O)[C@H](C)N)C(=O)O,,healthy male volunteers,"intravenous, 15 mg/kg/h, 2 h, added: LPS 2 ng/kg",,subjects with Possibly related AE,0%
CC[C@H](C)[C@@H]1NC(=O)[C@H](C(C)C)NC(=O)[C@H](C(C)C)NC(=O)[C@H](CC(C)C)NC(=O)C[C@@H](C(=O)N[C@@H](Cc2c[nH]c3ccccc23)C(=O)N[C@@H](CC(N)=O)C(=O)N[C@@H](C)C(=O)N2CCC[C@H]2C(=O)NCC(=O)N[C@@H](Cc2c[nH]c3ccccc23)C(=O)N[C@@H](Cc2ccc(O)cc2)C(=O)O)NC(=O)[C@H](C)NC(=O)[C@H](CCC(N)=O)NC(=O)[C@H](C(C)C)NC1=O,HPLC,,"3 h, 95 °C",,thermal stability,stable
